Measured values collected from several papers.
Numbered parts are unrelated; each lists some results of a single study. Changes are numbered by the printed parent chain.

Sample 1 — method: protein-binding microarray; form: double-stranded DNA, one strand shown; medium: in vitro; tested at: 250 nM; setting: 60-bp whole probe; added: salmon DNA 0.4 mg/ml; relative to: random background probes; reading: higher = stronger binding; endpoint: log fluorescence; all sequences stand within: GCCTAGCAC … GTCTTGATTCGCTTGACGCTGCTG
Target: Interferon regulatory factor 7, full length, phosphomimetic (IRF7, Homo sapiens, UniProt Q92985, residues 1-503, S101K/S471D/S472D/S475D/S476D/S477D/S483D/S484D/S487D)
Sequence of UniProt Q92985 (whole entry, unmodified, looked up): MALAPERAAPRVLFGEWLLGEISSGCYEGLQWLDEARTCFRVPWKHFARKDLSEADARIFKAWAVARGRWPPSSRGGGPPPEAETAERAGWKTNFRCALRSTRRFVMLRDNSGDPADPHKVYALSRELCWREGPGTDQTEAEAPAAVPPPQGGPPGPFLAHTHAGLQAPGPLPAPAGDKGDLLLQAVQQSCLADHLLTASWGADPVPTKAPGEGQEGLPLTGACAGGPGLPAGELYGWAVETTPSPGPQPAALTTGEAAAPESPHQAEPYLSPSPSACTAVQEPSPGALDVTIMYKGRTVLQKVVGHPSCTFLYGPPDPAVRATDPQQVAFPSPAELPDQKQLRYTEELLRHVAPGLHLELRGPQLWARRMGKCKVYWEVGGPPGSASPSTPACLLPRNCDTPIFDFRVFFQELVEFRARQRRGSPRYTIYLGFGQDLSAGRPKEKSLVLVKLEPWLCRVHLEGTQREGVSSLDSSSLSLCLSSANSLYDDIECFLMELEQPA
Oligonucleotide = TTAGAATTGAGTCTCGATTAGTGCTAG; value = 1.41 z-score
Oligonucleotide = TTTGGACTGGGACTGGGTTAGTGCTAG; value = -0.241 z-score
Oligonucleotide = TCATGCATCTGATTTCTCACTGTGCTA; value = -0.222 z-score
Oligonucleotide = GATGAACTGAGTCTCGAGACGTGCTAG; value = 0.393 z-score
Oligonucleotide = GACGGTTTCCTTTGCCTGACGTGCTAG; value = 2.37 z-score
Oligonucleotide = TTAGATTTCAGTCTCGAGTAGTGCTAG; value = 0.749 z-score
Oligonucleotide = TCAATTGTCTCTGTCCCACTGTGCTAG; value = 0.839 z-score
Oligonucleotide = GATGATTTCAGACTGGAGACGTGCTAG; value = -0.233 z-score
Oligonucleotide = TTAGGTCTCAGTCTCGGTTAGTGCTAG; value = 1.61 z-score
Oligonucleotide = GCTTTCCCCTTGGACTCTTTGTGCTAG; value = 4.02 z-score
Oligonucleotide = TCACTTCTATAGGCTAGAACTGTGCTA; value = 0.385 z-score
Oligonucleotide = GACGATCTCAGACTTGAGACGTGCTAG; value = -0.217 z-score
Oligonucleotide = ATTCTCTTCTTGCATCTGGGTGTGCTA; value = 1.7 z-score
Oligonucleotide = TCGCCTTTTTTGTTGTTTTTGTGCTAG; value = 1.38 z-score
Oligonucleotide = TATGTTTTTCATTTTGTTCAGTGCTAG; value = 2.76 z-score
Oligonucleotide = GATGGTTTCGGTCTCGGGACGTGCTAG; value = 8.55 z-score
Oligonucleotide = TTAGATATCAGACTAGATTAGTGCTAG; value = 0.171 z-score
Oligonucleotide = TAAGAACTGGGGTTTCGATTAGTGCTA; value = 6.3 z-score
Oligonucleotide = CTAGATTTCAGACTGGATTAGTGCTAG; value = 0.238 z-score

Sample 2 — method: DHFR PCA, deep sequencing; medium: yeast; added: (+)-ABA 200 µM; relative to: wild-type fitted maximum; reading: higher = stronger binding; endpoint: relative binding score
Target: ABI1, truncated, D143A, DHFR fusion (Arabidopsis thaliana)
Setting: methotrexate growth selection, single substitutions
Starting sequence: PYL1, truncated, DHFR fusion (Arabidopsis thaliana); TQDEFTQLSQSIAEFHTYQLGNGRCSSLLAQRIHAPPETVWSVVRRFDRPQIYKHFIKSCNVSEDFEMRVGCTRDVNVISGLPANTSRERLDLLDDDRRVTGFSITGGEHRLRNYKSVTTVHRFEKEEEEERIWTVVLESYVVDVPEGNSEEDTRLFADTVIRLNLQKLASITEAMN; partner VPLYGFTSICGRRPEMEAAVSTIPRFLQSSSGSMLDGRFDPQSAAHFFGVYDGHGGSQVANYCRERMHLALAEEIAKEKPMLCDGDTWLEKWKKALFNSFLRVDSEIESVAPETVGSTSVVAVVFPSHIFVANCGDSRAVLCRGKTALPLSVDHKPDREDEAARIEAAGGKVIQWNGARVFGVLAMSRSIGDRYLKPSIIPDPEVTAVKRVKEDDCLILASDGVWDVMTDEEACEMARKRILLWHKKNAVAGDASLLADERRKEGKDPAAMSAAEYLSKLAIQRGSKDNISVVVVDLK
Substitution = K116H; value = 91.5%
Substitution = K168G; value = 91.4%
Substitution = D97Y; value = 84.4%
Substitution = L20A; value = 108%
Substitution = F124T; value = 87.4%
Substitution = F56N; value = 3.33%
Substitution = D159T; value = 61.1%
Substitution = S150Y; value = 58.7%
Substitution = S150H; value = 71.5%
Substitution = N61Y; value = 97%
Substitution = D95R; value = 59.1%
Substitution = T160C; value = 86.5%
Substitution = R155I; value = 94.8%
Substitution = D75G; value = 85.3%

Sample 3 — method: RNA Bind-n-Seq; form: RNA; medium: in vitro; tested at: not given; setting: RNA with constant flanks, ends assumed; relative to: input RNA pool; reading: higher = stronger binding; endpoint: bound/input enrichment
Target: RING finger protein unkempt homolog, zinc fingers 1-6, GST-SBP tag (UNK, Homo sapiens, UniProt Q9C0B0, residues 30-357)
All sequences stand within: GGGAGUUCUACAGUCCGACGAUC … CAACAGAGGAUUGAGCAUCA
Residues (chain): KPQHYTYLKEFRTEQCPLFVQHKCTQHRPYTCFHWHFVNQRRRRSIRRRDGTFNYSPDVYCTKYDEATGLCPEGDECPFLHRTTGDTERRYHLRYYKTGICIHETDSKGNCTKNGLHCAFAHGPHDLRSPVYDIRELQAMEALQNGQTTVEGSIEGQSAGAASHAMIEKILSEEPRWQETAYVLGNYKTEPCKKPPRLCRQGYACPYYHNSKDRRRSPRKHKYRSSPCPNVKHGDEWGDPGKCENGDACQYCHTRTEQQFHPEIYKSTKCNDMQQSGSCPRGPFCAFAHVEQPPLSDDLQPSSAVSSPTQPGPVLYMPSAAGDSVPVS
Oligonucleotide = AUUCAGUUGGAAGAUGGUUCUGCGGCCUAUGUUCAACAUGUACCCAUACCUAAAAGUAACCGUUAUGACCAGAGUGCAUUACAGGCGGUUCAGCUGGAAGAUGGUACCACAGCUUAUAUC; value = 0.0778 ratio
Oligonucleotide = AACAGGAUCAGUUAACUAUUGCAUUUAUAUGUACCGUAGGCUUUGUAUUCAAAAAUUAUCUACCGCUAAGUACACAAUAAGCAAAAACAAAAAGAAAAGAAAAUUUUUGUAGUAGCGUUU; value = 0.78 ratio
Oligonucleotide = AGAAAGCAAAACUUGGAAAGAUUUAAGAAAGGAGAUGUAAGAUUCUUGAUUUGCACAGAUGCCGCUGCUAGAGGAAUUGAUAUCCACGGUGUUCCUUAUGUUAUAAAUGUCACUCUGCCC; value = 0.34 ratio
Oligonucleotide = AUCACAGACAUCAUAAGUGGCCUUGGCAGUAACAAGUGGAUCCAGCAAAAUCUUCAGUGCUCCGUACUAAACUCAUUAACUCUGUCCCUCGAGGAUCCAUAUGAGCGGUGCUUCAGCCGG; value = 0.139 ratio
Oligonucleotide = CUCCCUUUUCACCCACCUUUCCUCCCUCACCUCUCCUCACCUCCACCCCCUCCCCAGAGCACCCGUCAUGCCGCAAAUGCUAGGAAGUGCCAUUUUCAUUUUCUCCACUGUGCGUGUGUG; value = 0.659 ratio
Oligonucleotide = UAUAUCCUCUCCCUCUACCUGUAACAAUUUUGUUUUCUACUGUUAAUUACAUUGUGUAUUUACCGUUCUAUGCUUACUGUUGUGCAUAUACUGGCAAUAAAACUGUACAUAACAUUACUU; value = 0.199 ratio
Oligonucleotide = AGAUCCAUUGCCGUAGAUCCCAGCACAAGCAAGUCGGCAGACUCGAGGUGGCAAAAAGAAGCCGCGAUGCUGAGGAAGGAGACCGAGGACCUUCAACAACAAUGCCUUUAUCUAAAUGAA; value = 0.146 ratio

Sample 4 — target: CCNA1, cyclin fold, Cln2 fusion (human); method: yeast growth competition, sequencing; medium: yeast; setting: weak parent motif; relative to: not given; reading: higher = stronger binding; endpoint: normalised enrichment score
Starting sequence: ORC1 docking peptide (human); PRARKRLELGNLG
Substitution = R4F; value = 0.158
Substitution = L7T; value = -0.0816
Substitution = R2A; value = 0.202
Substitution = L9Y; value = 0.668
Substitution = K5T; value = 0.3
Substitution = L7S; value = 0.104
Substitution = G10H; value = -0.0424
Substitution = A3C; value = 0.726
Substitution = R4V; value = 0.295
Substitution = L9P; value = 0.237
Substitution = G10S; value = 0.327
Substitution = K5Y; value = 0.0818
Substitution = G10N; value = 0.319
Substitution = R4Y; value = 0.436
Substitution = A3Y; value = 0.792
Substitution = R4N; value = 0.217
Substitution = R2I; value = 0.633
Substitution = K5A L7A; value = 0.455
Substitution = L9C; value = 0.475
Substitution = N11G; value = 0.758
Substitution = L9N; value = 0.318
Substitution = N11A; value = 0.297
Substitution = L7F; value = 0.0144
Substitution = G13F; value = 0.0266

Sample 5 — method: RNA Bind-n-Seq; form: RNA; medium: in vitro; tested at: 365 nM; relative to: no-protein control; reading: higher = stronger binding; endpoint: RBNS enrichment (R)
Target: RNA binding protein fox-1 homolog 2, RRM domain, GST-SBP tag (RBFOX2, Homo sapiens, UniProt O43251-10, residues 100-194)
Setting: natural RNA segment, single round, ends assumed
All sequences stand within: GGGAGUUCUACAGUCCGACGAUC … UGGAAUUCUCGGGUGCCAA
Target sequence (chain): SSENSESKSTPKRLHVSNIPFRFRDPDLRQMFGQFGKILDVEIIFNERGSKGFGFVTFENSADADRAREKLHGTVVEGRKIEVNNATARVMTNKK
Oligonucleotide = CCAGGAGGCUUGGAGCUUGGACAGUGUGUGGUCUUCUCCCUAUCUUGCCUCCUGAUUUUUUUUUUCUCCCUCCGUUGUUGUUUUGGAAAAAAGUCUACUUUUCCAUCUAA; value = 0.855
Oligonucleotide = AAUUUUUUAACUUAAUGUGUUACUACAAAGAUUUGCAGAUCUUUAAUCAAGCACUAUGUUAAUACUGUAAUAUCAGAAUACUAUGUUGCAUUAUUUAAAAUGUUCAAAUU; value = 0.775
Oligonucleotide = CCUAGGGAAUGGAGAAUUCAUGUGAAGCCGAAUGAAGGAUCUUAUCUUAUACUGUCCCCCUUUCUAAUGGCCACUCUUUAGUGUUUGUGUCUAAUGUUAAUGCUUAAAGC; value = 0.96
Oligonucleotide = GUCCUGGAAAGUUUGGAAAGUUUCUCAAGGCUUUAAAUAAUUCUAAUCAUAGCUACUUCAGUUUUGUGUAUCUGUUCUCUGCAGAUGGUUUGAAACUGUAUAGGAAGAAC; value = 0.334
Oligonucleotide = AGAAUUGUUGGCAUGAUGACAUUUCAUUUGUGCCAAAAAUAUUAAAAAUGCCUUUUUUGGAAGGACUAACAGAAAGCACCUGAUUUGCACUUGAACCAGAUUAUAGAUUU; value = 0.737
Oligonucleotide = AAUCUUUUACAUGGCCUUGGUCUAGAGGAGGCAGGCUUUUAGAAUCAUGUUUUGUUAAUCCGCUUCACUAAAUUGGACCUUCACAUAUCUAAAAAGCUCUGAAGUGUUUG; value = 0.579
Oligonucleotide = CUUCCCCAGGGAUCUGGGGAAGACCAGAGCUUGCAGCUCUGCCUGCUUUGAUCCAUAUUUCUCACAGUGCUGUAUUAAAAAAUAGAACCUAAGGCAGAUAGCCACCUUUA; value = 0.338
Oligonucleotide = UGGCAUUAAAGGCUGUGCUCACGUGACAAGAGUGCCUUUGAGCUGUAAUGACCAGUGUUUAGAGUCCCUGUUGCUGAUACCUUUGAGUGAUUGACACCUGCUGCUUUUGA; value = 2.2
Oligonucleotide = GCCCUUGAACUUGAAGGACAUUAAAUUAUUAAUGAUCAUUUGGUAACAUGUUUACCUGAUUAUCUUCCAUAGAGUAACAUAAGCUGCUUUUCAAAGGUACCAUUGUGAUA; value = 0.315
Oligonucleotide = AUGCCUCCUGAUGGAUAUAAUUUUGUGAUUGUAUUUAAAAGUUGAAUAAAUCACACCAGCUUCCUGAAAAUGUUCAUAAUGCAUCUUUUGGAAAACAAAUACAUGCCUAC; value = 0.539
Oligonucleotide = UGGGUUGCUGUCAUUUCUGUUUUUCUCUUGCAGUGACAGAUCAGAUCAAGGCGGUAAAUCAAGUGGAAAAAGCGUCGGGUUCAAGGGGAGAACUCUGAUUGUGGGUAAUC; value = 0.873
Oligonucleotide = CUGAAGGUAGGUGAGUUCAUCCUCUUCAUGGUAAUGCUGUUUUACCAAGACUUUAUAGCAGAUGGACCCAGAAAGAAUUUUCUGCUAUUGUGUUCACUACAACAGGAUAG; value = 0.34

Sample 6 — target: CRIPT, C-terminal peptide; method: DHFR complementation, deep sequencing; medium: yeast; relative to: wild type; reading: higher = weaker binding; endpoint: binding free energy change
Setting: single substitutions, model-inferred values
Starting sequence: ERBIN, PDZ domain 1 (human); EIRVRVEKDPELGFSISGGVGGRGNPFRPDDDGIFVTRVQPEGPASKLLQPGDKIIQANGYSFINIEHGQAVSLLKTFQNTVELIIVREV; partner TKNYKQTSV
Substitution = A58N; value = 1.86 kcal/mol
Substitution = Q50C; value = 0.0422 kcal/mol
Substitution = V82E; value = 0.676 kcal/mol
Substitution = I85P; value = 0.792 kcal/mol
Substitution = P51G; value = 0.15 kcal/mol
Substitution = R23E; value = -1.17 kcal/mol
Substitution = G21I; value = 0.715 kcal/mol
Substitution = T37M; value = 0.143 kcal/mol

Other studies, line by line
Substance = PhoQ, residues 284 288 289 292 302 303 NSMLDC; target = PhoP, residues 12 14 15 18 19 QWHVF (Escherichia coli, UniProt P23836); test = Sort-seq, item: YFP reporter; system = E. coli; setting = PhoQ-PhoP variant library, added: 10 µM Mg2+; how to read = relative to: high Mg2+ state, higher = stronger signaling; endpoint = fold induction; value = 7.34

Excerpt of the above (sample 1):
Oligonucleotide = GATGGTTTCGGTCTCGGGACGTGCTAG; value = 8.55 z-score
Oligonucleotide = GACGGTTTCCTTTGCCTGACGTGCTAG; value = 2.37 z-score
Oligonucleotide = TCATGCATCTGATTTCTCACTGTGCTA; value = -0.222 z-score
Oligonucleotide = GCTTTCCCCTTGGACTCTTTGTGCTAG; value = 4.02 z-score
Oligonucleotide = TCGCCTTTTTTGTTGTTTTTGTGCTAG; value = 1.38 z-score
Oligonucleotide = TTAGAATTGAGTCTCGATTAGTGCTAG; value = 1.41 z-score
